Assay results from different studies.
Lines come from different studies, so protocols differ. ± gives the spread as reported.

SMILES	cell line	assay	conditions	IC50
CC(C)c1ccc(N(C)c2ccc3c(c2)OCC[C@H]3CNc2cnccc2C(=O)O)cc1	HT-1376	cell growth or viability, ATP luminescence	7 days	0.0363 µM
CC(=O)O[C@H]1OC[C@@H]2C=C([C@@]3(C)CCCC(C)(C)C3)CC[C@H]12	human T-lymphocyte	cell growth or viability, MTT	48 h	1.3 µM
C=CC(=O)N1CCCC(n2c(=O)c3ncccc3n(Cc3ccc(Oc4ccccc4)cc3)c2=O)C1 (stereo not shown)	OCI-Ly10	cell growth or viability, MTT	72 h	5 µM
O=C1C=CC(=O)N1CCCCCCCCCCOCc1cn(CCCCCCCCCCN2C(=O)C=CC2=O)nn1	L929	cell growth or viability	72 h	> 50 µM
CNS(=O)(=O)Nc1nccc(Cc2c(C)c3ccc(Oc4ncccc4F)cc3oc2=O)c1F	SNU-407	cell viability	7 days	> 1 µM
C[n+]1nn(CCCCCCCCN2C(=O)C=CC2=O)cc1COCCCCCCCCN1C(=O)C=CC1=O	L929	cell growth or viability	72 h	34.6 µM
C1=[N+]2CCCC[N+]3=Cc4ccc5[n]4[Au-]23[n]2c1ccc2-c1nc2ccccc2nc1-5.F[P-](F)(F)(F)(F)F	HCT-116 colon cancer	cell growth		4.9 µM
Cn1c(=O)n(C2CCC(=O)NC2=O)c2ccc(C3CCN(CC(=O)Nc4cccc(CS(=O)(=O)N5CC[C@H](Nc6cccc(-c7sc(C(=O)O)c(OCC(=O)O)c7Cl)c6)CC5(C)C)c4)CC3)cc21 (stereo partly shown)	B16-F10 cells	IFNγ-induced STAT1 phosphorylation, HTRF, item: pSTAT1 Tyr701	24 h, together with: IFNγ	0.029 ± 0.027 µM
O=C1C=CC(=O)N1CCCCCCOCc1cn(CCCCCCN2C(=O)C=CC2=O)nn1	L929	cell growth or viability	72 h	1.8 µM
CCOc1cncc(-c2ccc(NC(=O)C3(c4ccnc(NS(=O)(=O)C5CC5)n4)CCOCC3)nc2)n1	OCI-AML-3	cell proliferation, CellTiter-Glo	72 h	0.027 µM
COC[C@H](C)N1C(=O)C2=Nc3ccccc3CN2C1=S	CEM/ADR5000 (P-gp overexpressing, multidrug resistant)	cell viability, resazurin	72 h	5.29 ± 0.668 µM
C[n+]1nn(CCCCN2C(=O)C=CC2=O)cc1COCCCCN1C(=O)C=CC1=O	L929	cell growth or viability	72 h	29.5 µM
Cn1ncc(-c2ccc3c(=O)[nH]nc(CN)c3c2)c1-c1c(F)c(Cl)cc(OC2CC2)c1C#N	SK-HEP1	cell viability, inhibitor, CellTiter-Glo	120 h, baseline-subtracted	0.11 µM
C=CC(=O)N1C[C@H](C)N(c2nc(OC[C@@]34CCCN3C[C@H](F)C4)nc3c(F)c(-c4ccc(F)c5sc(N)c(C#N)c45)c(C(F)(F)F)cc23)C[C@H]1C	Ba/F3 expressing wild-type KRAS	cell viability, CellTiter-Glo	3 days	0.0252 µM
CCCN1C(=O)C2=Nc3ccccc3CN2C1=S	CEM/ADR5000 (P-gp overexpressing, multidrug resistant)	cell viability, resazurin	72 h	63.9 ± 30.3 µM
NC1=C(Cl)C(=O)c2ccccc2C1=O	HuCC-A1	cell growth or viability, MTT		14 µM

Repeated from above:
SMILES	cell line	assay	conditions	IC50
CCCN1C(=O)C2=Nc3ccccc3CN2C1=S	CEM/ADR5000 (P-gp overexpressing, multidrug resistant)	cell viability, resazurin	72 h	63.9 ± 30.3 µM
NC1=C(Cl)C(=O)c2ccccc2C1=O	HuCC-A1	cell growth or viability, MTT		14 µM
